Measurements gathered from unrelated publications.
Lines come from different studies, so protocols differ. Numbers after ± are the reported error.
Sequence of UniProt P02550 (whole entry, looked up): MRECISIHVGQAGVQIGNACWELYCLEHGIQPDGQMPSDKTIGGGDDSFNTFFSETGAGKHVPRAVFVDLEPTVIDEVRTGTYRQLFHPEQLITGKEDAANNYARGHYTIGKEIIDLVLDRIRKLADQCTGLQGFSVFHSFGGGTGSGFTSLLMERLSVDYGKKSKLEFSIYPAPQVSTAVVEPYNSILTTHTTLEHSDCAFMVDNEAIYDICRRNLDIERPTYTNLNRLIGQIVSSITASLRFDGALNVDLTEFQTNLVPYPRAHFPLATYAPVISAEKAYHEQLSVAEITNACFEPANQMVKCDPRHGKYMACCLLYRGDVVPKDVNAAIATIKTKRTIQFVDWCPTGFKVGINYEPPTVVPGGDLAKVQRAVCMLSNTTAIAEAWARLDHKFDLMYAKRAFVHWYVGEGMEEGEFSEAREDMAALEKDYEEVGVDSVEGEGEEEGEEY
Sequence of UniProt Q06911 (whole entry, looked up): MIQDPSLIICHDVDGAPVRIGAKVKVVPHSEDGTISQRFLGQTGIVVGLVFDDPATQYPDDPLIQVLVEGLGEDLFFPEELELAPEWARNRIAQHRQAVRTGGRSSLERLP
Sequence of UniProt P11362 (whole entry, looked up): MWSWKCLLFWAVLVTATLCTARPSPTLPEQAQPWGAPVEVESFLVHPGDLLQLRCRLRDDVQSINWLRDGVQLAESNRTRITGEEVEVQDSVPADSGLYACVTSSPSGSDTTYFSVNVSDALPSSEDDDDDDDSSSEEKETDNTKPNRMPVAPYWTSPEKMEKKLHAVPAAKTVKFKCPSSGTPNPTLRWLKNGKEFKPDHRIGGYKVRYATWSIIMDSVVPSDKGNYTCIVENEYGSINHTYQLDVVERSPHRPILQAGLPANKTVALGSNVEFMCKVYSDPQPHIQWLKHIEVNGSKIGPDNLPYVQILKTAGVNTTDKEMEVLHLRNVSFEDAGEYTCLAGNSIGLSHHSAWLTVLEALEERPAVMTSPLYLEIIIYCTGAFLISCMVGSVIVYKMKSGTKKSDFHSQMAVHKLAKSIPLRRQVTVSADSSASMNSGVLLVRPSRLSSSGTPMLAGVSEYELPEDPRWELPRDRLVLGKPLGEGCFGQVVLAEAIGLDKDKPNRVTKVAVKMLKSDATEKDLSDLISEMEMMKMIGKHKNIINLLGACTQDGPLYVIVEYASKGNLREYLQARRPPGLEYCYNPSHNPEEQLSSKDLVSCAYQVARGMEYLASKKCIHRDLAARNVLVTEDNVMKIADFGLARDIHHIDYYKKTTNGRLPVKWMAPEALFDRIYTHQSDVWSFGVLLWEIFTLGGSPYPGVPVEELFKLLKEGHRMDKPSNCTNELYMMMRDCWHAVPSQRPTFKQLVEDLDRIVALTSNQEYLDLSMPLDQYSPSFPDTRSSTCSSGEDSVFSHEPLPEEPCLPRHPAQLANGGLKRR
Sequence of UniProt P02554 (whole entry, looked up): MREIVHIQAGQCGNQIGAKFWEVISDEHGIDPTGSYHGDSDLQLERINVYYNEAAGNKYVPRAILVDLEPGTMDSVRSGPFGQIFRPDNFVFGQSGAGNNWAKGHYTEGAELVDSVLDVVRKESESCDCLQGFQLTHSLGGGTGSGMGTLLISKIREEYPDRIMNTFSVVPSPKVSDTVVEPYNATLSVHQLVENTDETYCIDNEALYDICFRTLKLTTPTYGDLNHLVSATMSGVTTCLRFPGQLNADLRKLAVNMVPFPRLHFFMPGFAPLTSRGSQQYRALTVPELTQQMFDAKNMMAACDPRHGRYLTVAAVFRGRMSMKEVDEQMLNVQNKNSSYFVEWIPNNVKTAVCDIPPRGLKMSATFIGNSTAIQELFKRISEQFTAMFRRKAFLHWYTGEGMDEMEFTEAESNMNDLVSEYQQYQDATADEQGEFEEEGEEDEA
Sequence of UniProt Q9Y657 (whole entry, looked up): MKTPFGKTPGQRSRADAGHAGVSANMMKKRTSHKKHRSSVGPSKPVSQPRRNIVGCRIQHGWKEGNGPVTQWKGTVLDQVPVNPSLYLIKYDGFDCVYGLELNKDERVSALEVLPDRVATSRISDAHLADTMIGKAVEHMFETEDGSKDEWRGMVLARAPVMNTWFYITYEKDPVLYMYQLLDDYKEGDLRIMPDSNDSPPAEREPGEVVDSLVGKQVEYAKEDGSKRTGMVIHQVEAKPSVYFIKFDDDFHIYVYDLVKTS
Sequence of UniProt O54709 (whole entry, looked up): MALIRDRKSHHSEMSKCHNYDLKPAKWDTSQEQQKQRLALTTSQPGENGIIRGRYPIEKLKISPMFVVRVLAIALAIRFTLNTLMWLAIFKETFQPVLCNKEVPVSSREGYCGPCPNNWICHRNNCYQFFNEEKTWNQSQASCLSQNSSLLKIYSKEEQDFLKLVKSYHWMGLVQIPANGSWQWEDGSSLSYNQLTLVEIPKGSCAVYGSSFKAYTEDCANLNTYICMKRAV
Sequence of UniProt Q07741 (whole entry, looked up): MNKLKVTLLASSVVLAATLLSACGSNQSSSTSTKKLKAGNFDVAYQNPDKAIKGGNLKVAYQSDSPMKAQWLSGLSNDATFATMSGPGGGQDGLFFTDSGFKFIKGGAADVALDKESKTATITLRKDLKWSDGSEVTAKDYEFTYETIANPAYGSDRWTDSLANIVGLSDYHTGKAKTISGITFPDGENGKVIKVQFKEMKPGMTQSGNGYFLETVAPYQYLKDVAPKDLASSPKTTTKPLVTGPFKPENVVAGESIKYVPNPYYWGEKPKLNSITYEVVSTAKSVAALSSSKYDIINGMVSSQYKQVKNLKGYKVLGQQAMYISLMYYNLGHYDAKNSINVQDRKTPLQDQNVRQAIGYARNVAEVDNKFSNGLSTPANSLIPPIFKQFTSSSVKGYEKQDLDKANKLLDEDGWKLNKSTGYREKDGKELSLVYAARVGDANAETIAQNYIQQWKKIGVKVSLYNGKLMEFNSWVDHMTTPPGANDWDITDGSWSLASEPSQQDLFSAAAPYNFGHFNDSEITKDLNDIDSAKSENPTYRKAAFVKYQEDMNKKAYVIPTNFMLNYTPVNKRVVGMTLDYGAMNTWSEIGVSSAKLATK
Sequence of UniProt Q14974 (whole entry, looked up): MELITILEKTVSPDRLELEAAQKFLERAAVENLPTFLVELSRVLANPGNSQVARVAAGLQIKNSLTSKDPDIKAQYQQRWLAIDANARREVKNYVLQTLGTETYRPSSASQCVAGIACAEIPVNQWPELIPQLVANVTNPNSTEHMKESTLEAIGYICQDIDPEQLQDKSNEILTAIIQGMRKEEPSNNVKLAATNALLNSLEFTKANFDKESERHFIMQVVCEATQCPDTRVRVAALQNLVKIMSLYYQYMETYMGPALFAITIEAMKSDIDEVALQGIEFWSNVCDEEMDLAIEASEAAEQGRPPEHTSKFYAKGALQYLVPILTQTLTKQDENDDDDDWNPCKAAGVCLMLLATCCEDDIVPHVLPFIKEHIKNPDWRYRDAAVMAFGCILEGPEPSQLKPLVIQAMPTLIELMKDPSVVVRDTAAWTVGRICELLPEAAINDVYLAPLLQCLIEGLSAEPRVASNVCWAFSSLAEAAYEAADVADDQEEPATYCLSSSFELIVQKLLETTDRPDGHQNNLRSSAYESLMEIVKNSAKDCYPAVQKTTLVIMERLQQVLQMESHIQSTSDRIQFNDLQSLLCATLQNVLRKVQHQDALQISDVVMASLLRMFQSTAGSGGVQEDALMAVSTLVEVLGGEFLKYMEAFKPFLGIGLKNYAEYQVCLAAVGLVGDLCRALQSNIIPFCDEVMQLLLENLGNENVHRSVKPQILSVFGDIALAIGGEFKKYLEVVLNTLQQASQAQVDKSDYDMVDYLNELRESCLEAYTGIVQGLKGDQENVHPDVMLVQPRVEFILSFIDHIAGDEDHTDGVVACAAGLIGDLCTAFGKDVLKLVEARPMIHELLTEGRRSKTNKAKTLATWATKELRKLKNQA
Sequence of UniProt P51654 (whole entry, looked up): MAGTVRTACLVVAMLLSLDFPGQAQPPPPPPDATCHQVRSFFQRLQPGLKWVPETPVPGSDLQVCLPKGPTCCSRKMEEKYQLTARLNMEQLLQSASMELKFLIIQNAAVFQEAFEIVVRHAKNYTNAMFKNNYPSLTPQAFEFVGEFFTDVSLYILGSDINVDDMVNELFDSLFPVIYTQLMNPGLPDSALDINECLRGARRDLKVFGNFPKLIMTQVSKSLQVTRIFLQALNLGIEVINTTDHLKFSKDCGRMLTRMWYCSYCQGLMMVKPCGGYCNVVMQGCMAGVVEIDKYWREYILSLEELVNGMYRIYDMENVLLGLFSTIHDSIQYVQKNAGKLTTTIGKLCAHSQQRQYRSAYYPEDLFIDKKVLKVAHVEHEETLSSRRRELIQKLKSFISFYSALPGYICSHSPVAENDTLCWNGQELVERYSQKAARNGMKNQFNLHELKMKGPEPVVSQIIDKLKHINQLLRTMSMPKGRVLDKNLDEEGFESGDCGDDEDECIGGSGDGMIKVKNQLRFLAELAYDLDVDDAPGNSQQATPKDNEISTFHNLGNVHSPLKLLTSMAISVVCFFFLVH
Sequence of UniProt P17931 (whole entry, looked up): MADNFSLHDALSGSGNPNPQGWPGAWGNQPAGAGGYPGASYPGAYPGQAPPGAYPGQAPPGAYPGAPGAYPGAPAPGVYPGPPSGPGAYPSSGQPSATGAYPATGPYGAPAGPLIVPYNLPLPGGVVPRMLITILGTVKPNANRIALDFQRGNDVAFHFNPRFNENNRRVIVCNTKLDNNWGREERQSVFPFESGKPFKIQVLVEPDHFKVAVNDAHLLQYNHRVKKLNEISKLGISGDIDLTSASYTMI
Sequence of UniProt Q9UER7 (55-144, looked up): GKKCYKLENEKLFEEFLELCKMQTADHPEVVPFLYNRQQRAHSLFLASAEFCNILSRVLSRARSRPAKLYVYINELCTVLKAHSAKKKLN

Compound = CC[C@H](C)[C@H]1C(=O)O[C@H](C(C)C)C(=O)N(C)[C@@H]([C@@H](C)CC)C(=O)O[C@H](C(C)C)C(=O)N(C)[C@@H]([C@@H](C)CC)C(=O)O[C@H](C(C)C)C(=O)N1C; target = HSP90AB1 (Homo sapiens, UniProt P08238); test = binding, SPR; conditions = pH 7.4; Kd = 14500 nM
Compound = N=C(N)NCCC[C@H](NC(=O)[C@H](CS)NC(=O)[C@H](Cc1ccc(O)cc1)NC(=O)[C@H](Cc1c[nH]c2ccccc12)NC(=O)[C@H](CCCNC(=N)N)NC(=O)[C@H](Cc1c[nH]c2ccccc12)NC(=O)CNC(=O)[C@H](Cc1c[nH]cn1)NC(=O)CNC(=O)CN)C(N)=O; target = HCV IIB RNA; test = fluorescein-labelled RNA titration; conditions = 1 mM TCEP; Kd = 10000 ± 2000 nM
Compound = COc1nc(OCc2cccc(-c3ccccc3)c2C)ccc1CNCCNC(=O)CCCc1cn(CCC(=O)N[C@@H](CC(=O)O)C(=O)N[C@@H](Cc2c[nH]cn2)C(=O)N[C@@H](CC(C)C)C(=O)N[C@@H](C)C(=O)N[C@@H](CO)C(=O)N[C@@H](CC(C)C)C(=O)N[C@@H](Cc2c[nH]c3ccccc23)C(=O)N[C@@H](Cc2c[nH]c3ccccc23)C(=O)NCC(=O)N[C@H](C(=O)N[C@@H](CCC(=O)O)C(=O)N[C@@H](CC(C)C)C(=O)O)[C@@H](C)O)nn1; target = Glypican-3 (Homo sapiens, UniProt P51654); test = binding, MST; Kd = 348 nM
Compound = CC[C@H](C)[C@H](NC(=O)[C@H](CCC(=O)O)NC(=O)[C@H](CC(=O)O)NC(=O)[C@H](CC(=O)O)NC(=O)[C@H](CC(=O)O)NC(=O)[C@H](CCCNC(=N)N)NC(=O)[C@@H](N)Cc1ccc(O)cc1)C(=O)N[C@@H](CC(=O)O)C(=O)N[C@H](C(=O)N[C@H](C(=O)N[C@@H](CO)C(=O)N1CCC[C@H]1C(=O)N[C@@H](Cc1c[nH]cn1)C(=O)O)C(C)C)C(C)C; target = Protein will die slowly, residues 50-361 (wds, Drosophila melanogaster, UniProt Q9V3J8); test = binding, ITC; conditions = pH 7.0, 25 °C; Kd = 8600 nM
Compound = CC(C)CC(NC(=O)C(NC(=O)NC(C(=O)O)C(C)C)C1CCNC(=N)N1)C(=O)NCCCNC(C(=O)O)C(OC1OC(CN)C(O)C1O)C1OC(n2ccc(=O)[nH]c2=O)C(O)C1O (stereo not shown); target = mraY (Aquifex aeolicus, UniProt O66465); test = isothermal titration calorimetry; conditions = added: 10 mM MgCl2; Kd = 17.2 nM
Compound = CC[C@H](C)[C@H](NC(=O)[C@H](CCCCN)NC(=O)[C@H](Cc1ccccc1)NC(=O)[C@H](CCCCNC(=O)[C@H](CC(C)C)NC(=O)[C@@H]1CCCN1C(=O)[C@H](CCCCN)NC(=O)C[C@@H]1O[C@@H](C)[C@@H](O)[C@@H](O)[C@@H]1O)NC(=O)[C@H](CC(C)C)NC(=O)[C@@H]1CCCN1C(=O)[C@H](CCCCN)NC(=O)C[C@@H]1O[C@@H](C)[C@@H](O)[C@@H](O)[C@@H]1O)C(N)=O; target = lecB (Pseudomonas aeruginosa, UniProt Q9HYN5); test = binding, ITC; conditions = pH 7.5; Kd = 123 nM
Compound = CSCC[C@H](NC(C)=O)C(=O)N[C@@H](CC(=O)O)C(=O)N[C@@H](CO)C(=O)N[C@@H](CCCCN)C(=O)N[C@@H](Cc1ccc(O)cc1)C(=O)N[C@H](C(=O)N[C@H](C(=O)N[C@@H](CC(C)C)C(=O)N[C@@H](Cc1ccc(O)cc1)C(=O)N[C@@H](Cc1ccc(O)cc1)C(=O)N[C@@H](CCC(N)=O)C(=O)N[C@@H](CC(C)C)C(=O)N[C@@H](Cc1c[nH]c2ccccc12)C(=O)N[C@@H](Cc1c[nH]c2ccccc12)C(=O)N[C@@H](CCCCN)C(=O)NCC(=O)N[C@@H](CO)C(=O)NCC(=O)N[C@@H](CO)C(=O)NCC(=O)N[C@@H](CO)C(=O)N[C@@H](CC(=O)O)C(=O)N[C@@H](Cc1ccc(O)cc1)C(=O)N[C@@H](CCCCN)C(=O)N[C@@H](CC(=O)O)C(=O)N[C@@H](CC(=O)O)C(=O)N[C@@H](CC(=O)O)C(=O)N[C@@H](CC(=O)O)C(=O)N[C@@H](CCCCN)C(=O)N[C@@H](CCCCN=[N+]=[N-])C(N)=O)[C@@H](C)O)C(C)C; target = FGFR1 (Homo sapiens, UniProt P11362); test = binding, BLI; Kd = > 10000 nM
Compound = CN1C(=O)[C@H](Cc2ccccc2)N(C)C(=O)[C@@H]2[C@H]1CCN2Cc1cc(Cl)cc(Cl)c1; target = NKG2-D type II integral membrane protein (Klrk1, Mus musculus, UniProt O54709); test = binding, surface plasmon resonance; Kd = > 80000 nM
Compound = CN=C(NC)NCCC[C@H](NC(=O)[C@H](C)NC(=O)[C@@H](NC(=O)[C@H](CCC(N)=O)NC(=O)[C@H](CCCC[N+](C)(C)C)NC(=O)[C@@H](NC(=O)[C@H](CCCNC(=N)N)NC(=O)[C@H](C)N)[C@@H](C)O)[C@@H](C)O)C(=O)N[C@@H](CCCCN)C(=O)N[C@@H](CO)C(=O)O; target = Spindlin-1 (SPIN1, Homo sapiens, UniProt Q9Y657); test = binding, ITC; conditions = pH 7.5; Kd = 66 nM
Compound = N=C(N)NCCC[C@H](NC(=O)[C@H](Cc1ccccc1)NC(=O)[C@@H]1CCCN1C(=O)[C@H](CO)NC(=O)[C@H](Cc1ccccc1)NC(=O)CNC(=O)[C@@H]1CCCN1C(=O)[C@@H]1CCCN1C(=O)[C@@H](N)CCCNC(=N)N)C(=O)N[C@@H](CCCCNS(=O)(=O)c1ccc(C2=c3cc4c5c(c3Oc3c2cc2c6c3CCCN6CCC2)CCC[N+]=5CCC4)c(S(=O)(=O)[O-])c1)C(=O)O; target = Oligopeptide-binding protein OppA (oppA, Lactococcus lactis subsp. lactis, UniProt Q07741); test = binding, fluorescence anisotropy; conditions = pH 5, 37 °C, added: dye-labelled peptide; Kd = 21400 ± 500 nM
Compound = CC[C@H](C)[C@H](NC(=O)[C@H](CCC(N)=O)NC(=O)[C@@H](NC(=O)[C@H](CO)NC(=O)CNC(=O)CNC(=O)CNC(=O)[C@@H]1CCCN1C(=O)[C@@H](NC(=O)[C@H](Cc1c[nH]cn1)NC(=O)[C@H](CCCCN)NC(=O)[C@H](CCCCN)NC(=O)CNC(=O)CNC(=O)CNC(=O)[C@@H](N)CSC1CC(=O)N(c2ccc3c(c2)C(=O)OC32c3ccc(N(C)C)cc3Oc3cc(N(C)C)ccc32)C1=O)C(C)C)C(C)C)C(=O)N[C@H](C(=O)N[C@@H](Cc1ccc(O)cc1)C(=O)N[C@@H](CCCCN)C(=O)N1CCC[C@H]1C(=O)N[C@H](C(=O)N[C@@H](CC(=O)O)C(=O)N[C@@H](CC(C)C)C(=O)O)C(C)C)C(C)C (stereo partly shown); target = Tubulin alpha-1A/beta chain (Sus scrofa, UniProt P02550+P02554); test = binding, equilibrium dialysis; conditions = pH 6.9, 25 °C; Kd = 6000 nM
Compound = CC[C@H](C)[C@H](NC(=O)[C@@H](N)CCCNC(=N)N)C(=O)N[C@@H](CC(N)=O)C(=O)N[C@@H](CC(N)=O)C(=O)N[C@H](C(=O)N1C[C@@H](n2cc([C]34[CH]5[CH]6[CH]7[CH]3[Fe]6754389%10[CH]4[CH]3[CH]8[CH]9[CH]4%10)nn2)C[C@H]1C(=O)N[C@@H](Cc1c[nH]c2ccccc12)C(=O)N[C@@H](CO)C(=O)N[C@@H](CCC(=O)O)C(=O)N[C@@H](C)C(=O)N[C@@H](CCSC)C(=O)N[C@@H](CCSC)C(N)=O)[C@@H](C)CC (stereo partly shown); target = HIV-1 92UG037-08 gp120, clade A; test = SPR; Kd = 16.3 nM
Compound = C=C(C)C12OC3(c4ccccc4)OC1C1C(O)C(Br)(CO)C(O)C4(O)C(=O)C(C)=CC4C1(O3)C(C)C2OC(=O)c1ccccc1 (stereo not shown); target = Importin subunit beta-1, C-terminal domain (550–876) (KPNB1, Homo sapiens, UniProt Q14974); Kd = 201 nM
Compound = CC[C@H](C)[C@H](NC(=O)CNC(C)=O)C(=O)N[C@@H](CCCNC(=N)N)C(=O)N[C@@H](CCC(=O)O)C(=O)N[C@@H](C)C(=O)N[C@H](C(=O)N[C@@H](CC(C)C)C(=O)N[C@@H](CCCNC(=N)N)C(=O)N[C@@H](C)C(=O)N[C@@H](Cc1c[nH]c2ccccc12)C(=O)N[C@@H](CCC(=O)O)C(=O)N[C@@H](CCCNC(=N)N)C(=O)N[C@@H](CCCNC(=N)N)C(=O)N[C@@H](Cc1ccc(O)cc1)C(=O)NCC(=O)N[C@@H](Cc1ccccc1)C(=O)N1CCC[C@H]1C(=O)N[C@@H](CCCNC(=N)N)C(=O)N1CCC[C@H]1C(=O)N[C@@H](CC(C)C)C(=O)N[C@@H](CCCNC(=N)N)C(=O)N[C@@H](CO)C(=O)N[C@@H](CCC(=O)O)C(N)=O)[C@@H](C)O; target = Antirepressor protein CarS (carS, Myxococcus xanthus, UniProt Q06911); test = isothermal titration calorimetry; conditions = pH 7.5, 25 °C; Kd = 150 ± 18 nM
Compound = CC[C@H](C)[C@H](NC(=O)[C@H](CCCNC(=N)N)NC(=O)[C@H](CC(N)=O)NC(=O)[C@H](CCC(=O)O)NC(=O)[C@@H]1CCCN1C(=O)[C@H](CC(=O)O)NC(=O)[C@H](CC(N)=O)NC(=O)[C@H](CC(=O)O)NC(=O)[C@H](CC(=O)O)NC(=O)[C@@H](N)CO)C(=O)N[C@@H](C)C(=O)N[C@@H](CCCCN)C(=O)N[C@]1(C)CCCCCCC=CCCC[C@@](C)(C(=O)N[C@@H](C)C(=O)N[C@@H](CC(N)=O)C(=O)N[C@@H](CC(C)C)C(=O)N[C@@H](CO)C(=O)O)NC(=O)[C@H]([C@@H](C)CC)NC(=O)[C@H](CCC(=O)O)NC(=O)[C@H](CCC(=O)O)NC(=O)[C@H](CC(C)C)NC(=O)[C@H](CC(C)C)NC(=O)[C@H](CCSC)NC1=O; target = Death domain-associated protein 6, residues 55-144 (Homo sapiens, UniProt Q9UER7); test = isothermal titration calorimetry; conditions = pH 7.5, 25 °C; Kd = 70 nM
Compound = CC(=O)N[C@H]1C(O)O[C@H](CO)[C@@H](O[C@@H]2O[C@H](CO)[C@H](O)[C@H](O)[C@H]2O)[C@@H]1O (stereo partly shown); target = Galectin-3 (LGALS3, Homo sapiens, UniProt P17931); test = isothermal titration calorimetry; Kd = 30000 nM

Repeated from above:
Compound = N=C(N)NCCC[C@H](NC(=O)[C@H](CS)NC(=O)[C@H](Cc1ccc(O)cc1)NC(=O)[C@H](Cc1c[nH]c2ccccc12)NC(=O)[C@H](CCCNC(=N)N)NC(=O)[C@H](Cc1c[nH]c2ccccc12)NC(=O)CNC(=O)[C@H](Cc1c[nH]cn1)NC(=O)CNC(=O)CN)C(N)=O; target = HCV IIB RNA; test = fluorescein-labelled RNA titration; conditions = 1 mM TCEP; Kd = 10000 ± 2000 nM
